Measurements collected from several papers.
A part holds a random share of what one study measured.

Block 1
Target: Histone acetyltransferase KAT6A, both winged helices, GST fusion (KAT6A, Homo sapiens, UniProt Q92794, residues 1-181)
Method: protein binding microarray
Molecule type: double-stranded DNA, one strand shown
Medium: in vitro
Tested at: not given
Setting: 8-mer, flanks averaged, mean of 2 arrays, mostly near background
Baseline: not given
Reading: higher = stronger binding
Target sequence (chain): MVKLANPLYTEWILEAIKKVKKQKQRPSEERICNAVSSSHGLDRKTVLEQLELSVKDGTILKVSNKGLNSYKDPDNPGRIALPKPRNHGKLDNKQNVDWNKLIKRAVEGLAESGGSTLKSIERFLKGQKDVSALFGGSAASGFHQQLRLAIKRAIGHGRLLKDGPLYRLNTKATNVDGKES
| Sequence | E-score |
| --- | --- |
| CCCGACCA | -0.03 |
| AATTTCAT | -0.141 |
| AGGAGTTC | -0.227 |
| CTCGCCAC | 0.00258 |
| CGACTAAG | 0.0376 |
| ATATCTGA | -0.0277 |
| ACAACCCG | 0.159 |
| CCTCAAAA | -0.0688 |

Block 2
Target: Replicase polyprotein 1ab, polymerase (rep, Severe acute respiratory syndrome coronavirus 2, UniProt P0DTD1)
Read-out: enzyme activity
Mode: inhibitor
Tested at: 20 µM
| Structure (SMILES) | inhibition |
| --- | --- |
| O=C(O)[C@H](O)[C@@H](O)[C@H](O[C@@H]1O[C@H](CO)[C@H](O)[C@H](O)[C@H]1O)[C@H](O)CO | -7.45% |
| CSc1nc2cc(Cl)c(Oc3cccc(Cl)c3Cl)cc2[nH]1 | 2.04% |
| [N-]=[N+]=CC(=O)CC[C@H](N)C(=O)O | 5.13% |
| C=C1CC/C=C(/C)CC[C@@H]2[C@@H]1CC2(C)C | -5.95% |
| CN(C(=O)CN1C(=O)COc2cc(Cl)c(Cl)cc21)[C@@H](CN1CCCC1)c1ccc(-c2cccc(C(N)=O)c2)cc1 | -5.32% |
| c1cnc(N2CCN(Cc3ccc4c(c3)OCO4)CC2)nc1 | -1.53% |
| CCNCCCNCCCCNCCCNCC | -6.59% |
| COc1cc(C[C@@H](CO)[C@H](CO)Cc2ccc(O)c(OC)c2)ccc1O | 1.91% |
| Cc1ccc(NC2=NCCN2)c(Cl)c1 | 3.69% |
| OC(c1ccccc1)C1CCN(CCc2ccccc2)CC1 (stereo not shown) | -2.69% |
| CC[C@@](C)(Nc1ccnc(-c2c[nH]c3ncccc23)n1)C(=O)NCC(F)(F)F | 3.36% |
| CNS(=O)(=O)Nc1nccc(Cc2c(C)c3ccc(Oc4ncccn4)cc3oc2=O)c1F | 0.05% |
| CCCCCCCCCCCCCCCC(=O)OC(CC(=O)[O-])C[N+](C)(C)C (stereo not shown) | -3.54% |
| CC(=O)OC[C@H]1O[C@@](COC(C)=O)(O[C@H]2O[C@H](COC(C)=O)[C@@H](OC(C)=O)[C@H](OC(C)=O)[C@H]2OC(C)=O)[C@@H](OC(C)=O)[C@@H]1OC(C)=O | -4.2% |
| Nc1ncnc2c1ncn2[C@@H]1O[C@H](CO)[C@@H](O)[C@@H]1O | 1.05% |
| c1ccc(N2CCN(Cc3nc4ccccc4[nH]3)CC2)nc1 | -3.59% |
| COc1cc(-n2cnc3cc(-c4ccc(Cl)cc4)sc3c2=O)ccc1OCCN1CCCC1 | -4.36% |
| CC(C(=O)O)c1ccc(CC2CCCC2=O)cc1 (stereo not shown) | 0% |
| CCCCc1ccc(C(N)=O)nc1 | 1.33% |
| Cc1cc(-c2cc(OC(=O)c3ccccc3)ccc2Cl)cc2nnc(Nc3ccc(OCCN4CCCC4)cc3)nc12 | 1.97% |
| CCOc1cc(C(=O)N2CCC(N3CCN(C)CC3)CC2)ccc1Nc1ncc2c(n1)N(C1CCCC1)c1ccccc1C(=O)N2C | -1.85% |
| O=C(Nc1cc(Oc2cc(F)c(NC(=O)C3(C(=O)Nc4ccc(F)cc4)CC3)cc2F)ccn1)C1CC1 | -0.07% |
| OC(CCN1CCCCC1)(c1ccccc1)c1ccccc1 | 3.89% |
| NC(=O)C(c1ccccc1)(c1ccc(F)cc1)c1ccc(F)cc1 | -7.89% |
| NCC(=O)N1C[C@H](NC(=O)c2ccccc2)C[C@H]1C(=O)O | 0.3% |

Block 3
Target: RNA binding protein fox-1 homolog 2, RRM domain, GST-SBP tag (RBFOX2, Homo sapiens, UniProt O43251-10, residues 100-194)
Method: RNA Bind-n-Seq
Molecule type: RNA
Medium: in vitro
Tested at: 365 nM
Setting: natural RNA segment, single round, ends assumed
Baseline: no-protein control
Reading: higher = stronger binding
| Sequence | RBNS enrichment (R) |
| --- | --- |
| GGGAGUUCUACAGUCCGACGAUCAGCUGGACAGCGGCAGUGGGCCUGCUGAGGCCUUCUCUUGAGGCCUGUGCUCUGGGGGUCCCUUGCUUAGCCUGUGCUGGACCAGCUGGCCUGGGGUCCCUCUGAAGAGAUGGAAUUCUCGGGUGCCAA | 8.63 |
| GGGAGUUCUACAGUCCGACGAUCGGUUCAUCAGAAUGGGCGUGUCUGCCUUCACAGUGCUGUCCUAAGUAAAUAAAGGGAUUGGUGAAGACGUCUCAGACUUUUUUUUUUAAGGAGUUCUCGGGGUGGAGGGAUGGAAUUCUCGGGUGCCAA | 0.981 |
| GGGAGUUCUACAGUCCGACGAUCUGAGUGAGGUGUAGGGAGUCUCCCUCCCCAAGUGGCCAUGUUUACAGAGUGUUGUCUACAAAGUGCAAGUGUGUUAAUGUUUAUGUAAAUUAUGCAGGUGAUAACUUUAUUGGAAUUCUCGGGUGCCAA | 1.76 |
| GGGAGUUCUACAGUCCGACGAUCUUGUAUUUUUAAAAUACAGGAGGGCGGGCGCUAACCAGAUCUUGACUGAUAUGGAAACGUACUUUUGUAUUUCAUGCUCAAGAGGAGUUUUGUUUUUGCUUUUUGUUGUUUGGAAUUCUCGGGUGCCAA | 0.52 |
| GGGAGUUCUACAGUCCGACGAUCAAAUAUAUUUAUAAGGACCUAUUCCAAUAGGCUCUUGGUGUUUCCCAUAUCAAGAUUUCUGCUAGCUAAUGCAUAGAGGGAAUACUGUCUAAAAAUAGACCCUUUCUUCCUGGAAUUCUCGGGUGCCAA | 0.52 |
| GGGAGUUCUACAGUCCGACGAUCCAGGGAUAAAAGUAUCCUUUGUUCAAUGAGUAGAAAACUAGAUUAUCUAUUAAUAUUUAAGACCAGGAAAAAAAAAAAAGAGGCUUAAGAGUAAGCCUGGAAAAUCUCACUGGAAUUCUCGGGUGCCAA | 0.669 |
| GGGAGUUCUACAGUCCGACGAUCAUGCUAUGUGUUCAUUUCGUGUGCAAGUUCAGAGUGUAAUAGAUUUACCCAGAGAAGGUGUUUCUAUACAAUGCCCCUACCUAUUUGAAAUUACAUGCUUGCCCAACACAUGGAAUUCUCGGGUGCCAA | 0.585 |
| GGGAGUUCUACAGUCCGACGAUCGACCGCAGACUGCAGCUCUGUCAUGCGAGGAAGCGCUCAAGUGUCCUGUGCGAACCCCUCGCCUCUUCCUGAGAUAGACUUGGCUCUCCCUCUUGGAUACUCUGCCCAUUUGGAAUUCUCGGGUGCCAA | 0.661 |

Block 4
Cell line: HEK-293T-ACE2
Tested at: concentration not given
Baseline: vehicle
| Compound | cell number [%] |
| --- | --- |
| O=C(O)CCCN1CCC(O[C@@H](c2ccc(Cl)cc2)c2ccccn2)CC1.O=S(=O)(O)c1ccccc1 | 101 |
| CN1CCc2nc(C(=O)N[C@@H]3C[C@@H](C(=O)N(C)C)CC[C@@H]3NC(=O)C(=O)Nc3ccc(Cl)cn3)sc2C1.Cc1ccc(S(=O)(=O)O)cc1.O | 103 |
| O=C(/C=C/c1cccc(S(=O)(=O)Nc2ccccc2)c1)NO | 54.8 |
| Cc1nccn1CC1CCc2c(c3ccccc3n2C)C1=O.Cl (stereo not shown) | 96.5 |
| CC(C)C[C@H](NC(=O)[C@H](CCc1ccccc1)NC(=O)CN1CCOCC1)C(=O)N[C@@H](Cc1ccccc1)C(=O)N[C@@H](CC(C)C)C(=O)[C@@]1(C)CO1 | 75.6 |

Block 5
Target: RING finger protein unkempt homolog, zinc fingers 1-6, GST-SBP tag (UNK, Homo sapiens, UniProt Q9C0B0, residues 30-357)
Sequence of UniProt Q9C0B0 (30-357, looked up): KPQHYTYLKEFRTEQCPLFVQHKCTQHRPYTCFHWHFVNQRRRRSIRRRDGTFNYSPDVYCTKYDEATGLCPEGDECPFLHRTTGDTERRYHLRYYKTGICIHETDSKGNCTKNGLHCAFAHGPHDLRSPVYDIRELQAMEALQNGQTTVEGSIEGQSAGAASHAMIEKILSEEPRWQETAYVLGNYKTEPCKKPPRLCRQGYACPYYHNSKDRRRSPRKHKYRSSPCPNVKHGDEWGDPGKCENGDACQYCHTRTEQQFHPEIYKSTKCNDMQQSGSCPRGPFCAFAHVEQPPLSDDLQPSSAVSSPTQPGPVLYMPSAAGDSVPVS
Method: RNA Bind-n-Seq
Molecule type: RNA
Medium: in vitro
Tested at: not given
Setting: RNA with constant flanks, human and mouse sites, ends assumed
Baseline: input RNA pool
Reading: higher = stronger binding
| Sequence | bound/input enrichment [ratio] |
| --- | --- |
| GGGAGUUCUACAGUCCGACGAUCCAUAGCCUGAACAUCGUCCACCGUGAUAUCAAGCCAGAGAACCUGCUGGUGUAUGAGCACCAAGAUGGCAGCAAAUCACUGAAGCUGGGUGACUUUGGACUGGCCACCAUUGUAGACGGCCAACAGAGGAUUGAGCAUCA | 0.157 |
| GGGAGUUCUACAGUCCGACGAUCACUGAUUUAUAUGAUAUAAAACGUGCAGUGGUUCACACCCAUCUUCUUAACCCUGAGUGGUUAGUCAACUACUUUGGUUCCUUAUCAGUAGAAGACUCCCUAGAAUGUCUCAGAGCCAUGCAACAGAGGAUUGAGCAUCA | 0.209 |
| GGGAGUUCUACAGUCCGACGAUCAGGCUCGUACUCAGUGGGGAGAAGAAAGAGCAAGCAGGCCAGAUGCCUGAGACUGCUGCAGGAGAGCCCACCCCAGAGCCUCCUCGGACUUCAUCACCCACCAGCCUUCCUCCACUUGCCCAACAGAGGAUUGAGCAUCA | 0.0563 |
| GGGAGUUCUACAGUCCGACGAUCGGCUGUGGACCGGGCGGCACGCACGCGGUGCAGGGUAACAUGGCGGAUGCGGAAGUAAUUAUUUUGCCAAAGAAACAUAAGAAGAAAAAGGAGCGGAAGUCAUUGCCAGAAGAAGAUGUACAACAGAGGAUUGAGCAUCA | 0.479 |
| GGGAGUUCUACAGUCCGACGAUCGAUUAUAUUGAUUUGGUACACAGUAAAUGGGAGUUUAAAAAAUCCAAAGACUCUAAUGACUUGUAAAGACUCUAAUGAUUUGUAUCAUGUAAUGAACUAAACCACCUGUAAUUUUGUACCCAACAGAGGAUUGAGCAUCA | 0.187 |
| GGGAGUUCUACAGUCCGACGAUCGAUACUUUAUUUCGGUGGGAACAAGAUGAAAUACCAAGCUCUUUAAUAUUGGAAGGUGUUGAACCACAGAGUACAUGUGAAUUAGAAGUGGAUGCUGUAGCUGCUGAUAUCUUAAAUCGUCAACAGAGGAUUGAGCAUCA | 0.856 |

Block 6
Target: Replicase polyprotein 1ab, main protease (rep, Severe acute respiratory syndrome coronavirus 2, UniProt P0DTD1)
Read-out: enzyme activity
Mode: inhibitor
Tested at: 20 µM
Setting: hit confirmation
| SMILES | inhibition |
| --- | --- |
| Cc1ccc(C)c(-n2sc3cc(F)ccc3c2=O)c1 | 110% |
| Nc1nc(-c2ccc(Cl)c(Cl)c2)c(-c2ccncc2)s1 | 76.3% |
| Cc1cc(-c2ccc(/N=N/c3ccc4c(S(=O)(=O)O)cc(S(=O)(=O)O)c(N)c4c3O)c(C)c2)ccc1/N=N/c1ccc2c(S(=O)(=O)O)cc(S(=O)(=O)O)c(N)c2c1O | 102% |

Excerpt of the above (block 2):
| Structure (SMILES) | inhibition |
| --- | --- |
| CCCCc1ccc(C(N)=O)nc1 | 1.33% |
| CN(C(=O)CN1C(=O)COc2cc(Cl)c(Cl)cc21)[C@@H](CN1CCCC1)c1ccc(-c2cccc(C(N)=O)c2)cc1 | -5.32% |
| Cc1ccc(NC2=NCCN2)c(Cl)c1 | 3.69% |
